Assay results of several laboratories.
Each line is one published result; not all experiments were run side by side.
Target: Amine oxidase [flavin-containing] B (MAOB, Homo sapiens, UniProt P27338)
UniProt P27338, sequence (whole entry, looked up): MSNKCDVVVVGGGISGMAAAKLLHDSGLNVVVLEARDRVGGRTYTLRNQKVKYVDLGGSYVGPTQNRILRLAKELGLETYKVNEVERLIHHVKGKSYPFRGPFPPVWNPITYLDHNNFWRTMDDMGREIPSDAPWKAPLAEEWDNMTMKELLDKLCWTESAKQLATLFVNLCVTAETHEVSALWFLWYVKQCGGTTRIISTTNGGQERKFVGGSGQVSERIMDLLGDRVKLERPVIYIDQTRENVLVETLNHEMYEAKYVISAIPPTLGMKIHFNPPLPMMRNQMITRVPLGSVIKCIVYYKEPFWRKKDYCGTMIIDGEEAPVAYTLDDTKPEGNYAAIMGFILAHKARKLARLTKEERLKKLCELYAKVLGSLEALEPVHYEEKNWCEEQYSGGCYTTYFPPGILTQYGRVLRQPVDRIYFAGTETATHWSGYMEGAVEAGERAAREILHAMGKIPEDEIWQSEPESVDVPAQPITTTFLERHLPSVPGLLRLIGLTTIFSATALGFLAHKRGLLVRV
Mode: inhibitor

| Structure (SMILES) | assay | conditions | IC50 [µM] |
| --- | --- | --- | --- |
| O=C1Nc2ccc(Cl)cc2/C1=N/N=C/c1ccc(OCc2cccc(F)c2)cc1 | enzyme activity | – | 20.8 |
| O=C(/C=C/c1ccc2c(c1)OCO2)c1ccc(Cl)s1 | enzyme activity, fluorescence | – | 0.43 |
| CCCCC1OC(=O)c2ccccc21 (centres unmarked) | enzyme activity, fluorescence | – | 113 |
| COc1cc(OC2OC(COC3OC(CO)C(O)C(OC4OC(CO)C(O)C(O)C4O)C3O)C(O)C(O)C2O)c2c(O)c3c(=O)cc(C)oc3cc2c1 (centres unmarked) | enzyme activity | – | > 400 |
| Cc1ccc2c(c1)/C(=N/N=C/c1cccc(OCc3ccccc3)c1)C(=O)N2 | enzyme activity | – | 15.2 |
| Cc1cc(=O)c2c(O)c3c(OC4OC(CO)C(O)C(O)C4O)cccc3cc2o1 (centres unmarked) | enzyme activity | – | > 400 |
| O=C1Nc2ccc(F)cc2/C1=N/N=C/c1cccc(OCc2ccccc2)c1 | enzyme activity | – | 0.607 |
| COc1cc2c(c(O)c1OC)C(=O)c1c(cc(C)c(O)c1OC)C2=O | enzyme activity | – | > 400 |
| Cc1ccc(C(=O)/C=C/c2ccc3c(c2)OCCO3)s1 | enzyme activity, fluorescence | – | 0.27 |
| CCCC[C@@H]1OC(=O)C2=C1CCC=C2 | enzyme activity, fluorescence | – | 27 |
| COc1cc(OC)c2c(c1)C(N)(c1cc(C)cc(OC)c1OC)OC2=O (racemic) | – | 20 min, pH 7.4, 37 °C, with: kynuramine 30 µM | > 100 |
| O=C1Nc2ccc(Cl)cc2/C1=N/N=C/c1cccc(OCc2ccccc2)c1 | enzyme activity | – | 6.06 |
| CCC/C=C1\OC(=O)c2ccccc21 | enzyme activity, fluorescence | – | 12.1 |
| COc1cc(C)cc(C2NC(=O)c3c(OC)cc(O)cc32)c1O (racemic) | enzyme activity, fluorescence | pH 7.4 | 66.8 |
| COc1cc(OC2OC(COC3OC(CO)C(O)C(O)C3O)C(O)C(O)C2O)c2c(c1)cc(O)c1c(=O)cc(C)oc12 (centres unmarked) | enzyme activity | – | > 400 |
| COc1cc(C)cc(C2NC(=O)c3c(O)cc(O)cc32)c1OC (racemic) | – | 20 min, pH 7.4, 37 °C, with: kynuramine 30 µM | > 100 |
| CCC/C=C1\OC(=O)C2=C1CC[C@@H](O)[C@H]2O | enzyme activity, fluorescence | – | 594 |

Some of these lines once more:
| Structure (SMILES) | assay | conditions | IC50 [µM] |
| --- | --- | --- | --- |
| CCCC[C@@H]1OC(=O)C2=C1CCC=C2 | enzyme activity, fluorescence | – | 27 |
| O=C1Nc2ccc(F)cc2/C1=N/N=C/c1cccc(OCc2ccccc2)c1 | enzyme activity | – | 0.607 |
